# Measured values of several laboratories.
# Protocols differ between the studies behind these lines. Numbers after ± are the reported error.
Structure (SMILES),assay,system,conditions,how to read,quantity,result
CC(C)C[C@H](NC(=O)[C@H](Cc1ccc(O)cc1)NC(=O)[C@H](Cc1c[nH]cn1)NC(=O)[C@@H](NC(=O)[C@H](CC(C)C)NC(=O)[C@H](C)NC(=O)[C@H](C)NC(=O)[C@H](CCCCN)NC(=O)CNC(=O)[C@@H](NC(=O)[C@H](Cc1c[nH]cn1)NC(=O)[C@H](CCCCN)NC(=O)CNC(=O)[C@@H](NC(=O)[C@H](Cc1c[nH]cn1)NC(=O)[C@H](C)NC(=O)[C@H](C)NC(=O)[C@H](CCCCN)NC(=O)[C@H](CCCCN)NC(=O)[C@H](Cc1ccccc1)NC(=O)[C@H](Cc1ccccc1)NC(=O)[C@H](CO)NC(=O)CNC(=O)[C@H](Cc1c[nH]c2ccccc12)NC(=O)CN)C(C)C)C(C)C)[C@@H](C)O)C(N)=O,,"zebrafish embryos 28 hpf, E3 medium",1 h,,acute toxic concentration,5 µM
CC(C)[C@H](NC(=O)[C@@H](NC(=O)[C@H](CCCNC(=N)N)NC(=O)[C@H](CCCNC(=N)N)NC(=O)[C@H](CCCNC(=N)N)NC(=O)[C@H](CCC(N)=O)NC(=O)[C@H](CCCNC(=N)N)NC(=O)[C@H](CCCNC(=N)N)NC(=O)[C@H](CCCCN)NC(=O)[C@H](CCCCN)NC(=O)[C@H](CCCNC(=N)N)NC(=O)CN)[C@@H](C)O)C(=O)N[C@H](C(=O)N[C@@H](CO)C(=O)N1CCC[C@H]1C(=O)O)[C@@H](C)O,,"ICR mouse, male, left kidney","intranasal, 5 mg/kg daily, 4 weeks",,kidney weight,0.345 ± 0.074 g
CSCC[C@H](NC(=O)CNC(=O)[C@H](CCCCN)NC(=O)[C@H](CC(C)C)NC(=O)[C@@H]1CCCN1C(=O)[C@H](CO)NC(=O)[C@H](Cc1c[nH]cn1)NC(=O)[C@H](Cc1c[nH]c2ccccc12)NC(=O)[C@H](CCCNC(=N)N)NC(=O)[C@H](CC(C)C)NC(=O)[C@H](CCCNC(=N)N)NC(=O)[C@H](Cc1c[nH]c2ccccc12)NC(=O)[C@H](CS)NC(=O)CCCCCNC(=O)CN1CCN(CC(=O)O)CCN(CC(=O)O)CCN(CC(=O)O)CC1)C(=O)O [copper-64 labelled],,"C57BL/6J mice, B16-F10 tumour, brain","intravenous, 1.85 MBq, 0.5 h",,tissue uptake,0.22 %ID/g
O=C(CN1CCN(CC(=O)NCP(=O)([O-])[O-])CCN(CC(=O)NCP(=O)([O-])[O-])CCN(CC(=O)NCP(=O)([O-])[O-])CC1)NCP(=O)([O-])[O-].[Gd+3],,"Sprague-Dawley rats, blood","intravenous, 35 µmol/kg, two-compartment model, together with: GdDTPA 68 µmol/kg co-injected",,clearance,5.4 mL/min/kg
CC(=O)NCC(=O)N[C@@H](Cc1ccccc1)C(=O)N[C@@H](Cc1ccccc1)C(=O)N[C@@H](Cc1ccc(O)cc1)C(=O)NCC(=O)N[C@@H](Cc1ccc(O)cc1)C(=O)NCC(=O)N[C@@H](CO)C(=O)N[C@@H](CO)C(=O)N[C@@H](CO)C(=O)N[C@@H](CCCNC(=N)N)C(=O)N[C@@H](CCCNC(=N)N)C(=O)N[C@@H](C)C(=O)N1CCC[C@H]1C(=O)N[C@@H](CCC(N)=O)C(=O)N[C@H](C(=O)O)[C@@H](C)O,,mouse skin,24 h,,skin permeation,12.8 ± 1.9%
CC(C)[C@@H]1NC(=O)CNC(=O)[C@H](CC(N)=O)NC(=O)[C@H](CCCNC(=N)N)NC(=O)[C@H](Cc2ccc(O)cc2)NC(=O)[C@H](C(C)C)NC(=O)[C@@H](NC(=O)[C@@H](NC(=O)[C@H](CC(N)=O)NC(=O)[C@H](Cc2c[nH]c3ccccc23)NC(=O)[C@H](C)NC(=O)[C@H](Cc2ccccc2)NC(=O)CNC(=O)[C@H](CCCCN)NC(=O)[C@H](Cc2ccccc2)NC(=O)[C@H](Cc2ccccc2)NC(=O)[C@H](CCCCN)NC(=O)OCC2c3ccccc3-c3ccccc32)C(C)C)CSSC[C@@H](C(=O)N[C@@H](Cc2c[nH]cn2)C(=O)N[C@@H](CCCNC(=N)N)C(=O)N[C@@H](CCCNC(=N)N)C(=O)N[C@@H](C)C(=O)N[C@@H](CC(N)=O)C(N)=O)NC(=O)[C@H](C(C)C)NC(=O)[C@H](CCCNC(=N)N)NC1=O,,"ICR mice, blood","intraperitoneal, 5 mg/kg, day 5",,mean corpuscular haemoglobin,13.17 ± 0.13 pg
CC(C)C[C@H](NC(=O)[C@H](Cc1ccccc1)NC(=O)CNC(=O)CNC(=O)[C@@H](N)Cc1ccc(O)cc1)C(=O)N[C@@H](CSCB(O)O)C(N)=O,RP-HPLC,PBS,"100 µM, 24 h, pH 7.4, 25 °C",,peptide remaining intact,~96%
O=C(c1cc(Cc2n[nH]c(=O)c3ccccc23)ccc1F)N1CC(CNC2CC2)C1,,"Wistar Han rat, male, blood","oral, 15 mg/kg daily, 4 weeks",,haematocrit,52.4 ± 3.3%
O=C1NC2(CC2)COc2ncc(F)cc2[C@H]2COCCN2c2ccn3ncc1c3n2,,"Sprague-Dawley rat, female, heart","oral, 10 mg/kg/day, 4 weeks, end of treatment",,organ-to-brain weight ratio,67.1 ± 8.36%
O=C(N[C@H](Cc1ccc(-c2ccccc2)cc1)C(=O)NCCNc1ccc([N+](=O)[O-])c2nonc12)c1ccc(-c2ccc(OP(=O)(O)O)cc2)cc1,,PBS,"pH 7.4, before phosphatase treatment",,critical micelle concentration,58.8 µM
COc1ccc(CNc2ccc3c(c2)S(=O)(=O)C=C3)cc1,,"male C57BL/6 mice, blood","intraperitoneal, 10 mg/kg, day 8, group average",,mean platelet volume,5.43 fL
COc1cnc2cccc(N3CCc4c(cc(Cn5ccnc5)cc4-c4cn(C)nc4C(F)(F)F)C3=O)c2c1,,CD-1 mice,"intraperitoneal, 150 mg/kg once daily, day 2",,body weight,28.7 ± 2.1 g
N=C(N)NCCC[C@H](NC(=O)[C@H](CCCNC(=N)N)NC(=O)[C@H](CCCNC(=N)N)NC(=O)[C@H](CCC(N)=O)NC(=O)[C@H](CCCNC(=N)N)NC(=O)[C@H](CCCNC(=N)N)NC(=O)[C@H](CCCCN)NC(=O)[C@H](CCCCN)NC(=O)[C@H](CCCNC(=N)N)NC(=O)CNC(=O)[C@H](Cc1ccc(O)cc1)NC(=O)[C@H](Cc1ccccc1)NC(=O)[C@H](Cc1ccccc1)NC(=O)[C@H](Cc1ccccc1)NC(=O)OCC1c2ccccc2-c2ccccc21)C(=O)O,ANS fluorescence,10 mM PBS,"pH 7.4, together with: ANS 10 µM",,critical aggregation concentration,~21.4 µM
CCN(CCCCOc1ccc(CCC(=O)N2CCC(Cc3ccccc3)CC2)cc1OC)Cc1ccccc1,,"Sprague-Dawley rats, both sexes, urine","oral gavage, 25 mg/kg, 12 to 24 h",reference: dose,excretion rate,0.0058 ± 0.0025%
CN[C@@H](C)C(=O)N[C@H](C(=O)N1C[C@@H](NC(=O)COCCOCCOCc2cn(CCNC(=O)CN(Cc3cccs3)C(=O)[C@H](NS(=O)(=O)c3cc4ccc(O)nc4cc3Cl)c3ccccc3OC)nn2)C[C@H]1C(=O)N[C@@H]1CCCc2ccccc21)C1CCCCC1,fast-gradient HPLC,,pH 7.4,,logD,2.5
CC[C@H](C)[C@H](NC(=O)[C@H](CCCCN)NC(=O)CNC(=O)[C@H](CC(C)C)NC(=O)[C@H](Cc1ccccc1)NC(=O)[C@H](CCCCN)NC(=O)[C@H](CO)NC(=O)[C@H](Cc1ccccc1)NC(=O)[C@H](Cc1c[nH]c2ccccc12)NC(=O)[C@H](CCC(N)=O)NC(=O)[C@@H](NC(=O)[C@H](Cc1ccccc1)NC(=O)CCCCCNC(=O)CN1CCN(CC(=O)O)CCN(CC(=O)O)CCN(CC(=O)O)CC1)C(C)C)C(=O)N[C@@H](CCC(=O)O)C(=O)N1CCC[C@H]1C(=O)N[C@@H](CC(=O)O)C(=O)N[C@H](C(=O)N[C@@H](CO)C(=O)N[C@@H](CCC(N)=O)C(=O)N[C@H](C(=O)N[C@@H](CCC(N)=O)C(=O)N[C@@H](CC(=O)O)C(=O)N1CCC[C@H]1C(=O)N[C@@H](CC(N)=O)C(=O)N[C@@H](CC(=O)O)C(=O)N[C@@H](CCC(N)=O)C(=O)N[C@@H](Cc1ccc(O)cc1)C(=O)N[C@@H](CCC(=O)O)C(=O)N1CCC[C@H]1C(=O)N[C@@H](Cc1ccccc1)C(=O)O)C(C)C)C(C)C [copper-64 labelled],,"C57BL/6 mice, muscle",together with: LPS 0.1 mg/kg intratracheal,,tissue uptake,0.26 ± 0.02 %ID/g
CSCC[C@H](N)C(=O)N[C@@H](C)C(=O)N[C@@H](CCCNC(=N)N)C(=O)N[C@@H](CCCNC(=N)N)C(=O)N[C@@H](CC(=O)O)C(=O)N[C@@H](CCCCN)C(=O)N[C@H](C(=O)N[C@@H](CC(=O)O)C(=O)N[C@@H](Cc1ccccc1)C(=O)N[C@@H](C)C(=O)N[C@@H](CCCNC(=N)N)C(=O)N[C@@H](CCCNC(=N)N)C(=O)N[C@@H](CCCNC(=N)N)C(=O)N[C@@H](CCCNC(=N)N)C(=O)NCCCCCC(=O)NCCCCC(NC(=O)CCCCCNC(=O)[C@H](CCCNC(=N)N)NC(=O)[C@H](CCCNC(=N)N)NC(=O)[C@H](CCCNC(=N)N)NC(=O)[C@H](CCCNC(=N)N)NC(=O)[C@H](C)NC(=O)[C@H](Cc1ccccc1)NC(=O)[C@H](CC(=O)O)NC(=O)[C@@H](NC(=O)[C@H](CCCCN)NC(=O)[C@H](CC(=O)O)NC(=O)[C@H](CCCNC(=N)N)NC(=O)[C@H](CCCNC(=N)N)NC(=O)[C@H](C)NC(=O)[C@@H](N)CCSC)[C@@H](C)O)C(=O)NCCCCC(NC(=O)C(CCCCNC(=O)CCCCCNC(=O)[C@H](CCCNC(=N)N)NC(=O)[C@H](CCCNC(=N)N)NC(=O)[C@H](CCCNC(=N)N)NC(=O)[C@H](CCCNC(=N)N)NC(=O)[C@H](C)NC(=O)[C@H](Cc1ccccc1)NC(=O)[C@H](CC(=O)O)NC(=O)[C@@H](NC(=O)[C@H](CCCCN)NC(=O)[C@H](CC(=O)O)NC(=O)[C@H](CCCNC(=N)N)NC(=O)[C@H](CCCNC(=N)N)NC(=O)[C@H](C)NC(=O)[C@@H](N)CCSC)[C@@H](C)O)NC(=O)CCCCCNC(=O)[C@H](CCCNC(=N)N)NC(=O)[C@H](CCCNC(=N)N)NC(=O)[C@H](CCCNC(=N)N)NC(=O)[C@H](CCCNC(=N)N)NC(=O)[C@H](C)NC(=O)[C@H](Cc1ccccc1)NC(=O)[C@H](CC(=O)O)NC(=O)[C@@H](NC(=O)[C@H](CCCCN)NC(=O)[C@H](CC(=O)O)NC(=O)[C@H](CCCNC(=N)N)NC(=O)[C@H](CCCNC(=N)N)NC(=O)[C@H](C)NC(=O)[C@@H](N)CCSC)[C@@H](C)O)C(N)=O)[C@@H](C)O (stereo partly drawn),,"C57BL/6 mouse female, uterus","dose not given, 3 h",reference: total,mean tissue distribution,1.74%
CC(CCC(=O)NCC(=O)O)C1CCC2C3C(O)CC4CC(OC5OC(C(=O)O)C(O)C(O)C5O)CCC4(C)C3CCC12C (stereo not drawn),measured: glucuronide to parent ratio,"women, plasma",dose not given,reference: C/C over T/T,ratio of metabolic ratios,8.97

# For quick reference, copied from above:
Structure (SMILES),assay,system,conditions,how to read,quantity,result
O=C(CN1CCN(CC(=O)NCP(=O)([O-])[O-])CCN(CC(=O)NCP(=O)([O-])[O-])CCN(CC(=O)NCP(=O)([O-])[O-])CC1)NCP(=O)([O-])[O-].[Gd+3],,"Sprague-Dawley rats, blood","intravenous, 35 µmol/kg, two-compartment model, together with: GdDTPA 68 µmol/kg co-injected",,clearance,5.4 mL/min/kg
COc1cnc2cccc(N3CCc4c(cc(Cn5ccnc5)cc4-c4cn(C)nc4C(F)(F)F)C3=O)c2c1,,CD-1 mice,"intraperitoneal, 150 mg/kg once daily, day 2",,body weight,28.7 ± 2.1 g
